Assay results pooled from the literature.
A part holds a random share of what one study measured. Changes are numbered by the printed parent chain.

Study 1
Target: Ras GTPase-activating protein-binding protein 1, full length (G3BP1, Homo sapiens, UniProt Q13283)
Chain of UniProt Q13283 (whole entry, looked up): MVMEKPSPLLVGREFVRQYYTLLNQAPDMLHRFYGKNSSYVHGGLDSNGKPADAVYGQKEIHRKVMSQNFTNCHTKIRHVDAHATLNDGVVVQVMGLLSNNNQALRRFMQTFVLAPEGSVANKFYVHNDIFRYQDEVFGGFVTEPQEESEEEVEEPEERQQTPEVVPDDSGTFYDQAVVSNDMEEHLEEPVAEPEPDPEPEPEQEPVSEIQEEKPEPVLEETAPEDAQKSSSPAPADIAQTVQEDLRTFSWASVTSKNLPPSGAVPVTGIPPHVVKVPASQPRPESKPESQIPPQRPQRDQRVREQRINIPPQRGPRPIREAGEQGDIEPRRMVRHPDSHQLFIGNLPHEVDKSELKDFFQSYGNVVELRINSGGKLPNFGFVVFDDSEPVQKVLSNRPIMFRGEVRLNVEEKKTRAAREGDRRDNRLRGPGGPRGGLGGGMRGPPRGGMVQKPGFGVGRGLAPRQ
Technique: RNA Bind-n-Seq
Molecule type: RNA
Sample: in vitro
Concentration: 200 nM
Notes: whole 134-nt RNA, ends assumed
With: 150 mM LiCl
Relative to: input library
Reading: higher = stronger binding
Library: 7-deaza-guanosine replaces G
All sequences stand within: GGGAGUUCUACAGUCCGACGAUC … UGGAAUUCUCGGGUGUCAAGG
| Oligonucleotide | log2 enrichment |
| --- | --- |
| CACAGACAACACGCACCCACACAGACACAGAGGGAAGGGGUUGGGAUGGGGACAGGGUGCGCAGCAGGGCGGGGUAGGACCCCAGCCCCU | -0.661 |
| UAACUUUAGAGGAGGAUCUGAUGGAUAUGGCAGUGGACGUGGAUUUGGAGAUGGCUAUAAUGGGUAUGGAGGAGGACCUGGAGGUGGCAA | -0.213 |
| UGGGGUCUGCGUACGCCUGGAGUCCUUCCCCGCUGUGCUCAGCAUGGACCCUAUCCGGAGCUUCUGCGGGAAGCUGCGGUCUCUGGCCAG | -0.678 |
| UGGCUUUCACCCCCAACCAGUGACCAAAGACUUGACCACUCAAAGUCCAGCUCCCCAGAACACUGCUCGACAUGGACACCGGUGUGAUUG | 1.38 |
| GUCCUGUGCUACACAUCGUAUGUACCGAAUCGGAAAAAAGGGAAAAAAGGAAAAAAGGGAAAGUAUUAUGUUACGCCGUUCGGAUCUGCA | -0.339 |
| UCCUCAAGUCCUGUGCUACACAUCGUAUGUACCGAAUCGGAGGGGAGGGAGGAAAGUAUUAUGUUACGCCGUUCGGAUCUGCACUUCCAG | -1.05 |
| UCCUGUGCUACACAUCGUAUGUACCGAAUCGGGGAAAAAGGGGAAAAAGGGGAAAAAGGGAAAGUAUUAUGUUACGCCGUUCGGAUCUGC | 0.0641 |
| AGUCCUGUGCUACACAUCGUAUGUACCGAAUCGGGGAAAAAAAGGGGUGGGGUGGGGAAAGUAUUAUGUUACGCCGUUCGGAUCUGCACU | -0.0138 |
| UCAAGUCCUGUGCUACACAUCGUAUGUACCGAAUCGGGGCCGGCCGGGGCCGGGGAAAGUAUUAUGUUACGCCGUUCGGAUCUGCACUUC | -0.101 |

Study 2
Target: ABI1, truncated, D143A, DHFR fusion (Arabidopsis thaliana)
Technique: DHFR PCA, deep sequencing
Sample: yeast
Notes: methotrexate growth selection, single substitutions
With: (+)-ABA 58 µM
Relative to: wild-type fitted maximum
Reading: higher = stronger binding
Starting sequence: PYL1, truncated, DHFR fusion (Arabidopsis thaliana); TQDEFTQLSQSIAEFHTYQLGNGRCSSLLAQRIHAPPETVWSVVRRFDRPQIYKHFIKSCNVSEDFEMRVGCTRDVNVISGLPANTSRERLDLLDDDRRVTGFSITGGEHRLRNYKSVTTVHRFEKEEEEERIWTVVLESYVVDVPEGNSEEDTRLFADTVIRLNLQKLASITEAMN
| Change | relative binding score [%] |
| --- | --- |
| L94S | 36.4 |
| L91E | 1.22 |
| Q10R | 84.8 |
| Y53C | 13.4 |
| K54A | 7.14 |
| N61G | 75.4 |
| V142S | 79.8 |
| D92G | 16.1 |

Study 3
Target: CCNF, cyclin fold, Cln2 fusion (human)
Technique: yeast growth competition, sequencing
Sample: yeast
Notes: strong parent motif
Relative to: not given
Reading: higher = stronger binding
Starting sequence: SLBP docking peptide (human); ARYKRKLLINDFG
| Change | normalised enrichment score |
| --- | --- |
| R2E | 1.33 |
| R5A | 1.23 |
| G13N | 1.19 |
| F12R | 1.63 |
| K6N | 1.93 |
| G13C | 1.49 |
| I9V | 1.06 |
| Y3L | 2.26 |
| N10W | 2.41 |
| Y3W | 1.71 |
| N10T | 1.99 |
| R2L | 0.944 |

Other studies, line by line
| Molecule | target | test | system | conditions | how to read | endpoint | result |
| --- | --- | --- | --- | --- | --- | --- | --- |
| PhoQ, residues 284 288 289 292 302 303 STVVAA | PhoP, residues 12 14 15 18 19 QYCSL (Escherichia coli, UniProt P23836) | Sort-seq, item: YFP reporter | E. coli | PhoQ-PhoP variant library, with: 10 µM Mg2+ | relative to: high Mg2+ state, higher = stronger signaling | fold induction | 5.89 |
